Measured values collected from several papers.
Every numbered part comes from another study and shows a few of its results, in no order. Changes are numbered by the printed parent chain.

Sample 1
Target: Histone acetyltransferase KAT6A, winged helix 2, GST fusion (KAT6A, Homo sapiens, UniProt Q92794, residues 85-181)
Method: protein binding microarray
Molecule type: double-stranded DNA, one strand shown
Medium: in vitro
Tested at: not given
Setting: 8-mer, flanks averaged, mean of 2 arrays, mostly near background
Baseline: not given
Reading: higher = stronger binding
Target sequence (chain): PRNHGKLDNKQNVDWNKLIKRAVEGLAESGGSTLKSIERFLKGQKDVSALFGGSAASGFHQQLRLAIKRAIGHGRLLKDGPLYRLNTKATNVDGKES
Oligonucleotide	E-score
ATGCTGTC	0.0433
ACGTAAGC	-0.181
GGAAGCGA	0.108
CGGATCAC	0.0609
ACGCATGG	-0.102
CAATGTCC	-0.0744
ATTAGATG	0.164
GCTACAGA	-0.154
AGAATTAT	8e-05
ATGACTTC	-0.171
CGATATTC	0.0322
CAAAATCC	0.0852
CCCCAGAC	-0.0157
CGTTTGTC	0.00426
AACGAGTT	-0.035
CTGTTACA	-0.0416
CTTTACTC	-0.147
AGGCTACA	0.0166
CGTCACGC	0.0255

Sample 2
Target: CCND3, cyclin fold, Cln2 fusion (human)
Method: yeast growth competition, sequencing
Medium: yeast
Setting: weak parent motif
Baseline: not given
Reading: higher = stronger binding
Starting sequence: CDKN1A docking peptide (human); SKACRRLFGPVDS
Substitution	normalised enrichment score
SKACRRLFGEVDS [P10E]	0.385
SKACRRLFFPVDS [G9F]	0.547
SKLCRRLFGPVDS [A3L]	-0.286
SKACRRLFGPYDS [V11Y]	0.342
SKACRRTFGPVDS [L7T]	0.475
SKAWRRLFGPVDS [C4W]	-0.133
SKDCRRLFGPVDS [A3D]	0.123
SKACRRLSGPVDS [F8S]	0.371
SKACRLLFGPVDS [R6L]	0.403
STACRRLFGPVDS [K2T]	0.592
SKACRRLFGPVPS [D12P]	-0.0157
SKACRRHFGPVDS [L7H]	0.359
SKACRRLFGPRDS [V11R]	0.564
SKACRALFGPVDS [R6A]	0.104

Sample 3
Target: RNA binding protein fox-1 homolog 2, RRM domain, GST-SBP tag (RBFOX2, Homo sapiens, UniProt O43251-10, residues 100-194)
Method: RNA Bind-n-Seq
Molecule type: RNA
Medium: in vitro
Tested at: 365 nM
Setting: natural RNA segment, single round, ends assumed
Baseline: no-protein control
Reading: higher = stronger binding
Target sequence (chain): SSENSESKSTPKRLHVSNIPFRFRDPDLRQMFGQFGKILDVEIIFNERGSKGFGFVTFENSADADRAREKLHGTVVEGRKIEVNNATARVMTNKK
Oligonucleotide	RBNS enrichment (R)
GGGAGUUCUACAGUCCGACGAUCUGCCGACUGAAGAGUGUGGGAUUUCCGAGGCCCAGGUGAGCACGUCCAUCUCAGGAGGCGUGGAGGGAAAAGACAUGUCAUGAAGGGUUUUUUUUAUGUGACUGAUUUUUUGGAAUUCUCGGGUGCCAA	0.697
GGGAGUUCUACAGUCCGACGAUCCUCUGCUCACACCUGGGAAGGGGCUCUCUAAAUCCCGGCCAGAAACUCUGACUUGUGCCAACAAUAGGAUGACCCAAGGGAGAGGAAACCUAUCCUCCUCACCAGAAGAGUGGAAUUCUCGGGUGCCAA	0.183
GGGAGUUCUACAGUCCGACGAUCCCAGGGUGAAAGGGCUGGCAUGGCAUCGCUCAUUUUAUUGCUCUGCAGGUAAACUGUAUAGGUAUAGAGUCCUCCAGUGCUCUGAAGAGCCCUGCCUCUAUGCACGCCCCUGGAAUUCUCGGGUGCCAA	0.386
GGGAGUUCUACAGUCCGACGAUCUAUUGAGCCAGGCAGUGGUGACACGCACACCUUUAAUCCUGGCAUUUGGGAGGUAGAGGCAGUCAGAUCUCUGUGAGUUCAAGGCCAGCCUGGUCUACAGAGUAAGUUCUUGGAAUUCUCGGGUGCCAA	0.26
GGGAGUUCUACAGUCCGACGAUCGACUUUUCAGUUUCAUAAGGAAGAGUGUUGCCUGAGGCCCUAGGGAAUAUUGGGGAAUAGAAGGGAUUGAGGAAACAUUAAUAAUAGUUAUUCAAAAGACCCAAAUGCUUUGGAAUUCUCGGGUGCCAA	0.472
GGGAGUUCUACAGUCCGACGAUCGCCCUUGCCCUUGGAGCUGCCGUGCCUGUGUCCUGAUGGCCCAAAUGUCAGGGUUCUGCUCGGCUUCUUGGACCUUGGCGCUUAGUCCCCAUCCCGGGUUUGGCUGAGCCUGGAAUUCUCGGGUGCCAA	0.481
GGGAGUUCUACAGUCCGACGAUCCCCUACACUCUCAGUUUACAGAGGCCACUGGGCCUCUGGCUGCAGAAUACAAAGUCCCGGGCUGUUAGAGGAGUCCUUUCCUCUCUGCCUGCCCUUUCCUGUCCCUCCCUUGGAAUUCUCGGGUGCCAA	1.19
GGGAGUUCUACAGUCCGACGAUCAUGGAUAGACUCUAUUUCCUUCCAUAUCUGUUCCUCUGUUCCUUUUCCCACUUUCUGGGUGGCUUUUUGGGUCCACCCAGCCAGGAUGCUGCAGGCCAAGCUGGGUGUGGUGGAAUUCUCGGGUGCCAA	0.312
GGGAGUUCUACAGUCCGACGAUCGCAGGUGACAGCACCCUGCUAGGAAGCUGUGUGUGUCCUGCCUUUCCUCCUGGAAUAUGUACGGAUGGAAGUCUUGGUUGAAGCAGGUUCCCCUGGGAAGUGCUCUCAGCUGGAAUUCUCGGGUGCCAA	0.314
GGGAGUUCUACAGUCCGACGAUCAAAGUCGUGGAGGAGCUAACUCGGAUCCAUAGCCAAGGACAGGAUCUCUUUUCCUGACCCUCCCUAAAGGCGUUGCCCUCCUAUCCUCCCCUCCCUUGCCCACCCUUGUUUGGAAUUCUCGGGUGCCAA	0.306
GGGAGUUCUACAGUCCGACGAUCGGCUACAUUGUAAUCUGCUUUGUUAAUGAAAAUGAUAAAACAGAAUAUUGACAAGCUAGGACACCUGUGGUAUCUUUAAUUGUAUCUCCUUCAGAAGUUUGCUUCUUAUGUGGAAUUCUCGGGUGCCAA	0.238
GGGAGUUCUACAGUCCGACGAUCGGGACGAUGCUUCCUCUCAUCCAAAACACAUGCAGAGUCACAUCCUCAUCCUAGUGUUUGGCAGUUUGAGACCGCUACCCUGAACUUAAGAGCUUUAAAUAUGAGGGUUGUGGAAUUCUCGGGUGCCAA	0.612

Sample 4
Target: ABI1, truncated, D143A, DHFR fusion (Arabidopsis thaliana)
Method: DHFR PCA, deep sequencing
Medium: yeast
Setting: methotrexate growth selection, single substitutions
With: (+)-ABA 0.0091 µM
Baseline: wild-type fitted maximum
Reading: higher = stronger binding
Starting sequence: PYL1, truncated, DHFR fusion (Arabidopsis thaliana); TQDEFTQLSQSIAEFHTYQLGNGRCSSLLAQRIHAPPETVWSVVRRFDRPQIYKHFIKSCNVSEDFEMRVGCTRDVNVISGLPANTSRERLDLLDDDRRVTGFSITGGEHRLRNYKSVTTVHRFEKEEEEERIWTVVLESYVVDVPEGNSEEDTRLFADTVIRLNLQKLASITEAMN
Substitution	relative binding score
V136H	0.838%
L82N	11.7%
L8R	2.55%
A30H	6.35%
N61M	29.2%
T17C	1.55%
T86Y	29.6%
I52A	33.3%
H16G	2.6%
A13V	6.71%
W134I	17.5%
L164T	4.97%
V78D	3.38%
V40N	-9.77%

Some of these lines once more (sample 3):
Oligonucleotide	RBNS enrichment (R)
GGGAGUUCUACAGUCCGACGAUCUAUUGAGCCAGGCAGUGGUGACACGCACACCUUUAAUCCUGGCAUUUGGGAGGUAGAGGCAGUCAGAUCUCUGUGAGUUCAAGGCCAGCCUGGUCUACAGAGUAAGUUCUUGGAAUUCUCGGGUGCCAA	0.26
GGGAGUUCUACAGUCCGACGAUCGACUUUUCAGUUUCAUAAGGAAGAGUGUUGCCUGAGGCCCUAGGGAAUAUUGGGGAAUAGAAGGGAUUGAGGAAACAUUAAUAAUAGUUAUUCAAAAGACCCAAAUGCUUUGGAAUUCUCGGGUGCCAA	0.472
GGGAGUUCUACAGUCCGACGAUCGCCCUUGCCCUUGGAGCUGCCGUGCCUGUGUCCUGAUGGCCCAAAUGUCAGGGUUCUGCUCGGCUUCUUGGACCUUGGCGCUUAGUCCCCAUCCCGGGUUUGGCUGAGCCUGGAAUUCUCGGGUGCCAA	0.481
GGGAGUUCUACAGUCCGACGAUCCCCUACACUCUCAGUUUACAGAGGCCACUGGGCCUCUGGCUGCAGAAUACAAAGUCCCGGGCUGUUAGAGGAGUCCUUUCCUCUCUGCCUGCCCUUUCCUGUCCCUCCCUUGGAAUUCUCGGGUGCCAA	1.19
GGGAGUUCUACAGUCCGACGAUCAUGGAUAGACUCUAUUUCCUUCCAUAUCUGUUCCUCUGUUCCUUUUCCCACUUUCUGGGUGGCUUUUUGGGUCCACCCAGCCAGGAUGCUGCAGGCCAAGCUGGGUGUGGUGGAAUUCUCGGGUGCCAA	0.312
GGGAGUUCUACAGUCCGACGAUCGCAGGUGACAGCACCCUGCUAGGAAGCUGUGUGUGUCCUGCCUUUCCUCCUGGAAUAUGUACGGAUGGAAGUCUUGGUUGAAGCAGGUUCCCCUGGGAAGUGCUCUCAGCUGGAAUUCUCGGGUGCCAA	0.314
